Measured values of several laboratories.
Parts stem from different laboratories: compare values within a part only. Substitutions count along the parent as printed.

Sample 1
Target: ABI1, truncated, D143A, DHFR fusion (Arabidopsis thaliana)
Method: DHFR PCA, deep sequencing
Matrix: yeast
Notes: methotrexate growth selection, single substitutions
With: (+)-ABA 0.0091 µM
Baseline: wild-type fitted maximum
Reading: higher = stronger binding
Starting sequence: PYL1, truncated, DHFR fusion (Arabidopsis thaliana); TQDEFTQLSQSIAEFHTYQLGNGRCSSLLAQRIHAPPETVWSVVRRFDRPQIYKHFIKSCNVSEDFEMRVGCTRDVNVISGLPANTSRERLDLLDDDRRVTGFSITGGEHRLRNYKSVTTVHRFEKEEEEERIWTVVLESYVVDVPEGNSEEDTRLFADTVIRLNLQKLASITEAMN
Change	relative binding score [%]
T120P	-3.67
A30D	2.8
T106L	57.2
A35T	1.71
T1G	20.6
E128K	14.7
P50G	-4.39
R98V	5.67
I105K	1.95
Q51Y	-16.3
V118F	0.485
N22C	3.54
K58R	18.8
T73N	-1.55
G21K	22.5
Y141W	-0.313
E139G	-3.05

Sample 2
Target: Histone acetyltransferase KAT6A, winged helix 1, GST fusion (KAT6A, Homo sapiens, UniProt Q92794, residues 1-85)
Method: protein binding microarray
Form: double-stranded DNA, one strand shown
Matrix: in vitro
Tested at: not given
Notes: 8-mer, flanks averaged, mean of 2 arrays, mostly near background
Baseline: not given
Reading: higher = stronger binding
Construct (chain): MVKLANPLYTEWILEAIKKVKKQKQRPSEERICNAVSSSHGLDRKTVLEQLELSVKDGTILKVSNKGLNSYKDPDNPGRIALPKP
Sequence	E-score
AGACTATC	-0.0855
CGGTGGTC	0.192
TTCACAAA	-0.171
CAGCAAGG	-0.126
ATCGTGTC	0.0565
ACGGCTCG	0.35
CAGCCTAA	-0.191
AATCGCCT	-0.0156
TGGTTCAA	-0.163
CGCCTGCC	0.214
CCCCAAAC	-0.0896
GCGTAATA	0.137
GGGAGTAC	0.136
ACGTGGCA	-0.247
GCTGGTGA	-0.17
GTTTTATA	-0.114
CAACTGGA	-0.24
ATATTGAG	-0.0355
TAACAGGA	-0.149
CTGTCTTC	-0.181
CGTGCTCC	-0.0606
CGCGAGAA	0.257
TAAGGTCA	-0.163

Sample 3
Target: CCNA2, cyclin fold, Cln2 fusion (human)
Method: yeast growth competition, sequencing
Matrix: yeast
Notes: strong parent motif
Baseline: not given
Reading: higher = stronger binding
Starting sequence: ANKRD17 docking peptide (human); PSVRRQLFVTVVK
Change	normalised enrichment score
PSVRAQAFVTVVK [R5A L7A]	0.612
PSVRRQLFVTVVA [K13A]	4.99
PSVRKQLLVTVVK [R5K F8L]	1.82
PSVRRQLFVTAVK [V11A]	5.76
PSVRRQAFVTVVK [L7A]	1.58
ASVRRQLFVTVVK [P1A]	4.63
PSVRRQLFVTVAK [V12A]	5.58
PSARRQLFVTVVK [V3A]	5.77
PAVRRQLFVTVVK [S2A]	4.67
PSVRRQLLVTVVK [F8L]	0.741

Sample 4
Target: Phosphate system positive regulatory protein PHO4, full length, GST-tagged (PHO4, Saccharomyces cerevisiae, UniProt P07270, residues 1-312)
Method: competition protein-binding microarray
Form: double-stranded DNA, one strand shown
Matrix: in vitro
Tested at: 2 µM
Notes: whole 60-bp probe, lowest competitor level
With: Cbf1 competitor, 0.05 µM
Reading: higher = stronger binding
All sequences stand within: … GTCTTGATTCGCTTGACGCTGCTG
Target sequence (chain): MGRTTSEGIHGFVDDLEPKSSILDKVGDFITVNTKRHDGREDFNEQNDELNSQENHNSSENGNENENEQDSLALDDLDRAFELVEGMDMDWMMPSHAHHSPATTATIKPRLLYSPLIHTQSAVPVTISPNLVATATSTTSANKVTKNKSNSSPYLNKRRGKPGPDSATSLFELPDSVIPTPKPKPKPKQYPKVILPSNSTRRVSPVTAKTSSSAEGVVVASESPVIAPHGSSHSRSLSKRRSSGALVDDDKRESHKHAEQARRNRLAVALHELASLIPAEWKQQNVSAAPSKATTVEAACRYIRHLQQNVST
Sequence	fluorescence intensity [a.u.]
ACAAAAGCCTGAATTGACATGACAACGACAATAGGG	4080
CTTCTGTAAATTTGCAAAGTGGGTGGACGCGCCCCG	3420
TGAACACCCATCCATCACGTGTAATTGGACATCCGG	16300
GGGTTAAAACTTCACCACGTTTGTAGCGGAGCAATG	11800
TCTCACCCATTCCGTCACGCTTTGGTTGCCGGTATT	6500
CAGTTTTTAAAATATCACAATTCAGGCGGGTTGCCA	3370
AATGGAGATATATACTTGATAGCTTTGGATGAATCT	2490
CTAACGAAGGTTTGTCACTAGACTTACAAGCCAAGT	3010
TGTAGTGGCAGTTTGCACGGGGTTTCCTGTGCCTTA	7850
AAAACAACATAAAAATCCGTGATGGTTTAATGGTCA	3710
CATACCCAACCTTGGTCTGTGGGTGAAGATATTTGT	4300
CATACCCAACCTTTTCACGTGTCTTAAGATATTTGT	15000
AAACAACTTTAGTGCCGCGTGATGGCGGGGGTTGAA	7320
TATTCAGAAACGAGTCACGTTGTGGAAAATCTCCCT	11500
GTCTTGTCTCATTGGCATGTGGGTGTCCCCACTTCA	9860
GAGCAGTTACGCAACTCCGTGATGGCGCGCCAAGGG	3040
GCAAGATCTAACGGCCACGTATTCTGGGCTTGGAGA	5070
CGGGGTTAAGTTTGCCCGGTGGGTGGCTTGCAGCAG	5180
AAAGCGGTAATTTGTTGAGTGGGTGCAGATATCTAT	4620
CTTTCCCGATCTTGTGCGGTGGGTGTAGCACATTTG	6120
AAAGCGGTAATTTGAAAAGTGGGTGCAGATATCTAT	4200
GTTCCATTCACCGTTGTAATGTGCAGCCCCGTCCTA	4370
CTTCTCTTTCCCACCACCGTGGGTATCCTTTTTCTT	8630
ACAGCCGCGGTTGGGTGCGTGGGTACGGTAATTTAA	9620
ACAATGTTTCAACTTCGCGTGCTGTTAAAAAAGTAC	8090

Sample 5
Target: CREB3L2, bZIP domain (human)
Method: DHFR protein complementation
Matrix: yeast
Notes: single substitutions, most at no-binding floor
Baseline: wild-type JUN-FOS pair
Reading: higher = stronger binding
Starting sequence: JUN, bZIP domain (human); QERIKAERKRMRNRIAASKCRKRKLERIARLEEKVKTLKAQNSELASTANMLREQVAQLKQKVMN; partner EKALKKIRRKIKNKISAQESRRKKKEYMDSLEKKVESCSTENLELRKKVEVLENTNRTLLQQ
Change	binding fitness [natural log]
V35T	-1.47
M51H	-1.52
V35G	-1.49
N42G	-1.47
L52M	-1.52
L31E	-1.51
R53W	-1.53
R53P	-1.55
R53H	-1.31
Q41R	-1.34
Q41P	-1.52
S43F	-1.49
A46I	-1.32
T48D	-1.06
E33V	-1.55
K34S	-1.45
A49Q	-1.55
K36W	-1.52

Sample 6
Target: RING finger protein unkempt homolog, zinc fingers 1-6, GST-SBP tag (UNK, Homo sapiens, UniProt Q9C0B0, residues 30-357)
Chain of UniProt Q9C0B0 (30-357, looked up): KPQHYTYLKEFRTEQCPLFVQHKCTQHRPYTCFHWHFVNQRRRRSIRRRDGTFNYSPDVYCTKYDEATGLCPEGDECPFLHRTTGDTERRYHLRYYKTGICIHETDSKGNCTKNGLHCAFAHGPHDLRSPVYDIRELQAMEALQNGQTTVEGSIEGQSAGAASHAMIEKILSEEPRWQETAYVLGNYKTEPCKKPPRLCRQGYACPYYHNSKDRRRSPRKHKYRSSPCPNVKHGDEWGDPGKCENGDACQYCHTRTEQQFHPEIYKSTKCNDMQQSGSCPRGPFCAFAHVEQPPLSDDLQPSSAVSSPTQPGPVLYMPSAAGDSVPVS
Method: RNA Bind-n-Seq
Form: RNA
Matrix: in vitro
Tested at: not given
Notes: RNA with constant flanks, human-mouse chimeric sites, ends assumed
Baseline: input RNA pool
Reading: higher = stronger binding
All sequences stand within: GGGAGUUCUACAGUCCGACGAUC … CAACAGAGGAUUGAGCAUCA
Sequence	bound/input enrichment [ratio]
AGGAGGAGGUUAAAGGGUGAGAGUGGGAUGGAGGAUUGUGUCAUGGCCCUAGAAACCCUGUUCAGUGUCCUGCUUUCUCUGUGCAGACUGAUGGCCCCUUACACGCCCUUUCUGACUGAG	0.0848
UCUGGUCACACUCGUGUGUAUGGUGUUUGCUUUGUUGACACUUCACUGGGCAAGUUUUUCAUCGGCCAGUUUUCGGAUGACCGCCACUGUUCCAGAUUUAGGACUCUAGUGGCUCACUAU	0.193
AAAGUGGACUAUGGUGAGUACAUGGAUAAAAAUAAUGUGAGGCGGCAAGCAACAACAAUCAUAGCUGAUAACAUUAUAUUUCUGAGUGACCAGACAAAAGAAAAGGCAUAGAACGGAUGA	1.52
ACAGUUAUAUUGUUGAGUUUCAUUUUCUUGUAUGUUUGUAGUGUCUGCUUGCCUGUGUCUUUUAGUAAAAUAAAAUAAGCCUUUGAAAAUAUUUUAGCAUGGUAUUUAACAUUUUCUAAA	2.72
ACCAUUUCUGAAUACACGGCUUUGUGUGUAGUUCACUCUAUGUAUUAAAUUAUUAUUCUGCUUAGCUUAUAAUAAGGAUAAUUGCAUUUAAAGAGGUUACUGAAUGUUACUCUGAAACUU	0.349
GUGUCCUGCUUUCAACUAUCACUGAGGAGGCAUCUCUACUGUUCUGUGAGCAUCAGGACUGUAGCGCUGUGUCACCACAUGAGAGUUGUUAAGCAGCCUUUCUGUGGAGGGUGGGAAUGA	0.0816
ACACAAUAUGAGACCAACAGCAUGGACUUCAAAGUUGGGGCAGAUGGGACAGUCUUCGCCACCCGGGAGCUGCAGGUCCCCUCCGAGCAGGUGGCGUUUACCGUCACUGCAUGGGACAGC	0.158
AGAUAUUAAGUAUUUUGAAAAAACUCGAACAGAUUUGACAAGGGUAGCCAGCUUGGAGUCUAGCAACUUGCCAAUGUGUUUACCAAUCUGGGGGCUUUGUUUUUCUUUCUUCUUUCAAAU	0.278
CGCUGGCCCAAGCUGAUGGACUCUGAUGGCCUCCAUCUCUCAGGCACGUGUGCCUUCUCUUAGUCCCUGUUUUCGGGUCACAAAGCUUCUCAGUACUGUGGUUUGAAAGCACCAGCUUUG	0.109
GUUCGACUCUGGGAUCAUGCCACAAUGACAGAAGUGAAAUCUCUGAAUUUUAAUAUGUCUGUUAGCAGUAUGGAAUAUAUUCCUGAAGGAGAGAUUUUGGUUAUUACUUAUGGACGAUCU	0.64

Sample 7
Target: Sal-like protein 4, full length isoform A (SALL4, Homo sapiens, UniProt Q9UJQ4, residues 1-1053)
Chain of UniProt Q9UJQ4 (whole entry, looked up): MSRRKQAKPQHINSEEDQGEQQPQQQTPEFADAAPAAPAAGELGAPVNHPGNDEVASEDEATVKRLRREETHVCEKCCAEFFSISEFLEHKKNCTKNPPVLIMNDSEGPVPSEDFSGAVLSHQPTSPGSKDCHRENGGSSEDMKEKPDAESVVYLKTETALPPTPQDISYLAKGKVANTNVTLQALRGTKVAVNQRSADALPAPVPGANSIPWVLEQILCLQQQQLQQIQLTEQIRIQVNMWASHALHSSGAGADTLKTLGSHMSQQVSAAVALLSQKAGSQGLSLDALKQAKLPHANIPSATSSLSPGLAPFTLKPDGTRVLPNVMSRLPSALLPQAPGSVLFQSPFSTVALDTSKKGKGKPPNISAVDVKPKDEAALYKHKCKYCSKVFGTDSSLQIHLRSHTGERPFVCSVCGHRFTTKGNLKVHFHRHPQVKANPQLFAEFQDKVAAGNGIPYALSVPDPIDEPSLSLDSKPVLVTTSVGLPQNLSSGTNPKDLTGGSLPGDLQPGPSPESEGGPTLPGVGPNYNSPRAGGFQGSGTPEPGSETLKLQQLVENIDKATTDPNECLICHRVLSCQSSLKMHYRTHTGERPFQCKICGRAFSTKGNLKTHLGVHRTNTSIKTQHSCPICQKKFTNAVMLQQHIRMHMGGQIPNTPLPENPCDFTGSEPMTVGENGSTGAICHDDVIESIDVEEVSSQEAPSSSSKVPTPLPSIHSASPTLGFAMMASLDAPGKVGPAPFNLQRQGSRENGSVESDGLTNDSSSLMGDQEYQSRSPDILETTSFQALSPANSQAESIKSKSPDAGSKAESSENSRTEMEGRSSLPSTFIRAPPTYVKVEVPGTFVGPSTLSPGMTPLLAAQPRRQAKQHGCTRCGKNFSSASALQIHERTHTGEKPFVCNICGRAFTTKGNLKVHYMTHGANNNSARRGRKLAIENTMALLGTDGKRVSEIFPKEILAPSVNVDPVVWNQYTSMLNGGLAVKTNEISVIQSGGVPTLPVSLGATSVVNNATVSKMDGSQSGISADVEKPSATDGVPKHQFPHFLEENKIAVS
Method: universal PBM
Form: double-stranded DNA, one strand shown
Matrix: in vitro
Tested at: 600 nM
Notes: 8-mer, flanks averaged, mean of replicates
Reading: higher = stronger binding
Sequence	E-score
CAATCGGA	-0.133
GATTATGC	0.0882
ACTTTTGC	0.125
AATACCTG	0.122
CCGACCCA	-0.235
CTATGCAC	0.00888
CTTCGGGC	-0.278
TCGAAGCA	0.0301
CCAGCACA	-0.0636
CTGTTAGC	-0.19
CGCAATTA	0.203
CGCGGAGC	-0.378
ATTCAAGG	0.0368
ACGGTACG	-0.139
CCGGCGGA	-0.295
AAGAAAGG	0.101
GCCAACGC	-0.246
AGATCGTG	-0.0997
ACTAACAC	0.0713
CGTCGAAA	0.00144
ACCCCTAG	-0.198
CGGCTCAG	-0.25
CGTAGGAC	-0.249
AGAACGCC	-0.18

Repeated from above (sample 5):
Change	binding fitness [natural log]
L31E	-1.51
A46I	-1.32
R53W	-1.53
N42G	-1.47
V35G	-1.49
Q41R	-1.34
E33V	-1.55
R53H	-1.31
K34S	-1.45
R53P	-1.55
T48D	-1.06
S43F	-1.49
Q41P	-1.52
V35T	-1.47
L52M	-1.52
K36W	-1.52
